{"data": "Assay results collected from several papers", "organism": "Staphylococcus aureus", "note": "Lines come from different studies, so protocols differ."}
{"SMILES": "CC[C@H]1OC(=O)[C@H](C)[C@@H](OC(=O)Cc2c(F)cc([N+](=O)[O-])cc2F)[C@H](C)[C@@H](O[C@@H]2O[C@H](C)C[C@H](N(C)C)[C@H]2O)[C@](C)(OC)C[C@@H](C)C(=O)[C@H](C)[C@@H](O)[C@]1(C)O", "test system": "ATCC 43300 MRSA", "MIC": "128 µg/mL"}
{"SMILES": "CC(C)C/C=C/C=C\\C(=O)N[C@@H](CC(N)=O)C(=O)N[C@@H]1C(=O)N[C@H](c2ccc(O)cc2)C(=O)N[C@H](CCCN)C(=O)N[C@H]([C@@H](C)O)C(=O)N[C@@H](c2ccc(O)cc2)C(=O)N[C@H](c2ccc(O)cc2)C(=O)N[C@@H]([C@H](C)O)C(=O)N[C@@H](Cc2ccccc2)C(=O)N[C@H](CCCN)C(=O)N[C@@H](c2ccc(O[C@H]3O[C@H](CO)[C@@H](O)[C@H](O)[C@@H]3O[C@H]3O[C@H](CO)[C@@H](O)[C@H](O)[C@@H]3O)cc2)C(=O)N[C@H]([C@@H](C)O)C(=O)N[C@@H](c2ccc(O)cc2)C(=O)NCC(=O)N[C@@H](CC(C)C)C(=O)N[C@H](C)C(=O)N[C@@H](c2ccc(O)c(Cl)c2)C(=O)O[C@@H]1C(N)=O", "test system": "MSSA ATCC 29213", "MIC": "1 µM"}
{"SMILES": "COc1c(NC(=O)c2ccc(NC(=O)[C@H](Cc3c[nH]nn3)NC(=O)c3ccc(NC(=O)/C(C)=C/c4ccc(O)cc4)cc3)cc2)ccc(C(=O)Nc2ccc(C(=O)O)cc2)c1O", "assay": "broth microdilution", "test system": "ciprofloxacin-sensitive", "MIC": "2 µg/mL"}
{"SMILES": "CCC(CC)c1cc(CCN2CCCNCC2)nc(-c2cccnc2)n1", "assay": "microbial growth, broth dilution", "test system": "ATCC29213", "MIC": "> 16 µg/mL"}
{"SMILES": "CCCCCCCCCCn1cc[n+](CCCCCCCCCCOc2cc(OCCCCCCCCCC[n+]3ccn(CCCCCCCCCC)c3)cc(OCCCCCCCCCC[n+]3ccn(CCCCCCCCCC)c3)c2)c1.[Br-].[Br-].[Br-]", "test system": "SH1000 MSSA", "MIC": "16 µM"}
{"SMILES": "CN[C@H](CC(C)C)C(=O)N[C@H]1C(=O)N[C@@H](CC(N)=O)C(=O)N[C@H]2C(=O)N[C@H]3C(=O)N[C@H](C(=O)N[C@H](C(=O)O)c4cc(O)cc(O)c4-c4cc3ccc4O)[C@H](O)c3ccc(c(Cl)c3)Oc3cc2cc(c3O[C@@H]2O[C@H](CO)[C@@H](O)[C@H](O)[C@H]2O[C@H]2C[C@](C)(N)[C@H](O)[C@H](C)O2)Oc2ccc(cc2Cl)[C@H]1O", "assay": "microbial growth, broth dilution", "test system": "29213", "MIC": "< 1 µM"}
{"SMILES": "C=C1CN(C(=N)N)CC2Nc3c(F)cc(Br)cc3C12CCNS(=O)(=O)c1ccc(Cl)cc1.O=C(O)C(F)(F)F (centres unmarked)", "test system": "NR-46414, vancomycin-resistant", "MIC": "2 µg/mL"}
{"SMILES": "CC[C@H]1OC(=O)[C@H](C)[C@@H](OC(=O)Cc2cccc([N+](=O)[O-])c2)[C@H](C)[C@@H](O[C@@H]2O[C@H](C)C[C@H](N(C)C)[C@H]2O)[C@](C)(OC)C[C@@H](C)C(=O)[C@H](C)[C@@H](O)[C@]1(C)O", "test system": "ATCC 43300 MRSA", "MIC": "> 64 µg/mL"}
{"SMILES": "CNC(=O)c1cc(Oc2ccc(NC(=O)Nc3ccccc3)cc2)ccn1", "assay": "microbial growth", "test system": "NCTC8325", "MIC": "> 100 µM"}
{"SMILES": "CCCCCCCC[N+](C)(C)CCCCOc1cc(OCCCC[N+](C)(C)CCCCCCCC)cc(OCCCC[N+](C)(C)CCCCCCCC)c1.[Br-].[Br-].[Br-]", "test system": "SH1000 MSSA", "MIC": "0.5 µM"}
{"SMILES": "CC[C@H]1OC(=O)[C@H](C)[C@@H](O[C@H]2C[C@@](C)(OC)[C@@H](O)[C@H](C)O2)[C@H](C)[C@@H](O[C@@H]2O[C@H](C)C[C@H](N(C)C)[C@H]2O)[C@](C)(OC)C[C@@H](C)C(=O)[C@H](C)[C@@H](O)[C@]1(C)O", "test system": "DSM 20231 MSSA", "MIC": "0.5 µg/mL"}
{"SMILES": "C#CCOc1ccc(CN[C@@]2(C)C[C@H](O[C@H]3[C@H](Oc4c5cc6cc4Oc4ccc(cc4Cl)[C@@H](O)[C@@H](NC(=O)[C@@H](CC(C)C)NC)C(=O)N[C@@H](CC(N)=O)C(=O)N[C@H]6C(=O)N[C@H]4C(=O)N[C@H](C(=O)N[C@H](C(=O)N[C@@H](CCCNC(=N)N)C(N)=O)c6cc(O)cc(O)c6-c6cc4ccc6O)[C@H](O)c4ccc(c(Cl)c4)O5)O[C@H](CO)[C@@H](O)[C@@H]3O)O[C@@H](C)[C@H]2O)cc1OC", "assay": "broth microdilution", "test system": "MSSA ATCC 29213, cation-adjusted Mueller-Hinton broth", "conditions": "20 to 24 h, 37 °C, 0.002% polysorbate 80", "MIC": "0.5 µg/mL"}
{"SMILES": "CC[C@H]1OC(=O)[C@H](C)[C@@H](OC(=O)Cc2ccc3c(c2)OCO3)[C@H](C)[C@@H](O[C@@H]2O[C@H](C)C[C@H](N(C)C)[C@H]2O)[C@](C)(OC)C[C@@H](C)C(=O)[C@H](C)[C@@H](O)[C@]1(C)O", "test system": "DSM 20231 MSSA", "MIC": "0.5 µg/mL"}
{"SMILES": "CCCCCCCCCCCC[N+](C)(C)CCCCCCCCOc1cc(OCCCCCCCC[N+](C)(C)CCCCCCCCCCCC)cc(OCCCCCCCC[N+](C)(C)CCCCCCCCCCCC)c1.[Br-].[Br-].[Br-]", "test system": "HA-MRSA ATCC 33591", "MIC": "32 µM"}
{"SMILES": "C#CCNC(=O)[C@H]1NC(=O)[C@H]2NC(=O)[C@H](NC(=O)[C@@H]3NC(=O)[C@H](CC(N)=O)NC(=O)[C@H](NC(=O)[C@@H](CC(C)C)NC)[C@H](O)c4ccc(c(Cl)c4)Oc4cc3cc(c4O[C@@H]3O[C@H](CO)[C@@H](O)[C@H](O)[C@H]3O[C@H]3C[C@](C)(N)[C@H](O)[C@H](C)O3)Oc3ccc(cc3Cl)[C@H]2O)c2ccc(O)c(c2)-c2c(O)cc(O)cc21", "assay": "broth microdilution", "test system": "MSSA ATCC 29213, cation-adjusted Mueller-Hinton broth", "conditions": "20 to 24 h, 37 °C, 0.002% polysorbate 80", "MIC": "0.5 µg/mL"}
{"SMILES": "COc1cc(C(=O)Nc2ccc(C(=O)O)cc2)ccc1NC(=O)c1ccc(NC(=O)[C@H](Cc2c[nH]nn2)NC(=O)c2ccc(NC(=O)/C(C)=C/c3ccc(O)cc3)cc2)cc1", "assay": "broth microdilution", "test system": "ciprofloxacin-resistant", "MIC": "32 µg/mL"}
{"SMILES": "CCCCCCCCCC[N+](C)(C)CCCCCCCCCCOc1cc(OCCCCCCCCCC[N+](C)(C)CCCCCCCCCC)cc(OCCCCCCCCCC[N+](C)(C)CCCCCCCCCC)c1.[Br-].[Br-].[Br-]", "test system": "CA-MRSA USA300-0114", "MIC": "8 µM"}
{"SMILES": "CC[C@H]1OC(=O)[C@H](C)[C@@H](OC(=O)Cc2ccc(Cl)cc2)[C@H](C)[C@@H](O[C@@H]2O[C@H](C)C[C@H](N(C)C)[C@H]2O)[C@](C)(OC)C[C@@H](C)C(=O)[C@H](C)[C@@H](O)[C@]1(C)O", "test system": "ATCC 43300 MRSA", "MIC": "> 128 µg/mL"}
{"SMILES": "CC[C@H](C)[C@H](N)C1=N[C@H](C(=O)N[C@@H](CC(C)C)C(=O)N[C@H](CCC(=O)O)C(=O)N[C@H](C(=O)N[C@H]2CCCCNC(=O)[C@H](CC(N)=O)NC(=O)[C@@H](CC(=O)O)NC(=O)[C@H](Cc3c[nH]cn3)NC(=O)[C@@H](Cc3ccccc3)NC(=O)[C@H]([C@@H](C)CC)NC(=O)[C@@H](CCCN)NC2=O)[C@@H](C)CC)CS1", "assay": "broth microdilution", "test system": "ATCC 29213, LB medium", "conditions": "no added Zn2+", "MIC": "16 µg/mL"}
{"SMILES": "N=C(N)NCCC[C@@H]1NC(=O)[C@H](CCCNC(=N)N)NC(=O)[C@H](CCCNC(=N)N)NC(=O)[C@@H](CCCNC(=N)N)NC(=O)[C@H](Cc2ccc3ccccc3c2)NC(=O)[C@H](Cc2ccc3ccccc3c2)NC(=O)[C@H](Cc2ccc3ccccc3c2)NC1=O", "test system": "ATCC 29213, MSSA", "MIC": "4 µg/mL"}
{"SMILES": "CCCCCCCCCCn1cc[n+](CCCCOc2cc(OCCCC[n+]3ccn(CCCCCCCCCC)c3)cc(OCCCC[n+]3ccn(CCCCCCCCCC)c3)c2)c1.[Br-].[Br-].[Br-]", "test system": "SH1000 MSSA", "MIC": "1 µM"}
{"SMILES": "COc1cc(C(=O)O)ccc1NC(=O)c1ccc(NC(=O)c2ccc(NC(=O)[C@H](Cc3c[nH]nn3)NC(=O)c3ccc(NC(=O)/C(C)=C/c4ccc(O)cc4)cc3)cc2)c(OC)c1", "assay": "broth microdilution", "test system": "ciprofloxacin-sensitive", "MIC": "4 µg/mL"}
{"SMILES": "CCCCCCCCCCCC(=O)Oc1c(C)c(OC)c2c(/C=C/c3ccccc3)c(CCCCCCCCCC)c(=O)oc2c1C", "assay": "microbial growth, broth dilution", "test system": "ATCC25923", "MIC": "5000 µg/mL"}
{"note": "Some of these lines once more:"}
{"SMILES": "CCCCCCCCCCCC(=O)Oc1c(C)c(OC)c2c(/C=C/c3ccccc3)c(CCCCCCCCCC)c(=O)oc2c1C", "assay": "microbial growth, broth dilution", "test system": "ATCC25923", "MIC": "5000 µg/mL"}
